Measurements of several laboratories.
Numbered parts are unrelated; each lists some results of a single study.

Sample 1
Target: Centromere-binding protein 1, full length, His-tagged (CBF1, Saccharomyces cerevisiae, UniProt P17106, residues 1-351)
Sequence of UniProt P17106 (whole entry, looked up): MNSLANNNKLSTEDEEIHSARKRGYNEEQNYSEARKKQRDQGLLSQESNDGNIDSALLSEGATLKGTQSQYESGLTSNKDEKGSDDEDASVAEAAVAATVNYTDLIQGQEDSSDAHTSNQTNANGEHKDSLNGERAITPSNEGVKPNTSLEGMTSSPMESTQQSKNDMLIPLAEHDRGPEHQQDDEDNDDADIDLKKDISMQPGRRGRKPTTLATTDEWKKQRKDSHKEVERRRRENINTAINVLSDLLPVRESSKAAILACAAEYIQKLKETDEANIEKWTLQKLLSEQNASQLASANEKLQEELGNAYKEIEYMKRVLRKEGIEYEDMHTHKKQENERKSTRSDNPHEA
Method: competition protein-binding microarray
Form: double-stranded DNA, one strand shown
Medium: in vitro
Concentration: 2 µM
Setting: whole 60-bp probe, lowest competitor level
Added: Pho4 competitor, 0.05 µM
Direction: higher = stronger binding
Endpoint: fluorescence intensity
CATACCCAACCTTGTTGGGTGGGTGAAGATATTTGTGTCTTGATTCGCTTGACGCTGCTG: 60.3 a.u.
AAAGCGGTAATTTGTCACAAGACTTCACATATCTATGTCTTGATTCGCTTGACGCTGCTG: 156 a.u.
TGCGCAACAACTTGGTATGTGGGTGTATGTCTAGAAGTCTTGATTCGCTTGACGCTGCTG: 69.7 a.u.
CCGAAAAGCAACTGGCACGTTTTGAGCTCGGTGTTTGTCTTGATTCGCTTGACGCTGCTG: 95 a.u.

Sample 2
Target: Interferon regulatory factor 7, full length, phosphomimetic (IRF7, Homo sapiens, UniProt Q92985, residues 1-503, S471D/S472D/S475D/S476D/S477D/S483D/S484D/S487D)
Sequence of UniProt Q92985 (whole entry, unmodified, looked up): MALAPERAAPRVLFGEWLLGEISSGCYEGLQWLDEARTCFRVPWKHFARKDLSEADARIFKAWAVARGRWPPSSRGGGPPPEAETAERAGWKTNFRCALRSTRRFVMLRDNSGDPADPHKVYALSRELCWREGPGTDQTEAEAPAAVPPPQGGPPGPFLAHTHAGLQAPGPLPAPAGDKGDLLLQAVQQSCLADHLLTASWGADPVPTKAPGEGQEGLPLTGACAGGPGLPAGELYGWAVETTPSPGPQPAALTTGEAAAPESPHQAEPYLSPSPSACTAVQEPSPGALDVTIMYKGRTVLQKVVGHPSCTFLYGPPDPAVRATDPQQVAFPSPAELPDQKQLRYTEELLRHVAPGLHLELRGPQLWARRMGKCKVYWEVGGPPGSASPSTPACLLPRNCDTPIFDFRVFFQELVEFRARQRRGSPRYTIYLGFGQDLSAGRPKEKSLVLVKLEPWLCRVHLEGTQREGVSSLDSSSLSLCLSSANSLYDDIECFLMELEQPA
Method: protein-binding microarray
Form: double-stranded DNA, one strand shown
Medium: in vitro
Concentration: 2200 nM top
Setting: 60-bp whole probe
Added: salmon DNA 0.4 mg/ml
Reference: random background probes
Direction: higher = stronger binding
Endpoint: fitted relative affinity
GCCTAGCACTCATTTTTTTCATTATTACTGTGCTAGGTCTTGATTCGCTTGACGCTGCTG: 2.94 z-score
GCCTAGCACTTAGAACTGTGGACTGGATTAGTGCTAGTCTTGATTCGCTTGACGCTGCTG: -0.554 z-score
GCCTAGCACTTAGGTCTCGGAATGGGTTAGTGCTAGGTCTTGATTCGCTTGACGCTGCTG: 0.155 z-score

Sample 3
Target: Sal-like protein 4, full length isoform B (SALL4, Homo sapiens, UniProt Q9UJQ4-2, residues 1-616)
Method: universal PBM
Form: double-stranded DNA, one strand shown
Medium: in vitro
Concentration: not given
Setting: 8-mer, flanks averaged, mean of replicates
Direction: higher = stronger binding
Endpoint: E-score
Residues (chain): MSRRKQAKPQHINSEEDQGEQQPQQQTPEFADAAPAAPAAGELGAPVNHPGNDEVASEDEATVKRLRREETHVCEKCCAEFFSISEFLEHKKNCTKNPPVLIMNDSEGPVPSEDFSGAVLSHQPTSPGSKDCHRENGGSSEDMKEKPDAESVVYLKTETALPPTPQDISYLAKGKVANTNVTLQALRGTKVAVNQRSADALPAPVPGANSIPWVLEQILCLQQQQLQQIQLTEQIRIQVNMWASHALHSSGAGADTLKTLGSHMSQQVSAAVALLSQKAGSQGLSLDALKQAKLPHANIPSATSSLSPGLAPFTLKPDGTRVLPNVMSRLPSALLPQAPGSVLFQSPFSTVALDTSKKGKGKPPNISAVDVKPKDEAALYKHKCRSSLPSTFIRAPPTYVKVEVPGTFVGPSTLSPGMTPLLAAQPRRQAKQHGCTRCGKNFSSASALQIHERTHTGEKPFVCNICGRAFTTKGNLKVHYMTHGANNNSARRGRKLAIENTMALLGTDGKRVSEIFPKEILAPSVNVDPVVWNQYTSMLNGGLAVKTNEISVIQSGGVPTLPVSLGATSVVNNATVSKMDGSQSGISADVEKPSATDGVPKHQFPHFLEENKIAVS
CCCTGACA: -0.0751
ATTCAGAA: 0.102
GTAGACTA: -0.0915
GTCGAGCA: -0.151
CAGTAGAA: 0.0454

Further values, each from its own experiment
PhoQ, residues 284 288 289 292 302 303 SLANKL  fold induction (PhoP, residues 12 14 15 18 19 LYHSL (Escherichia coli, UniProt P23836); Sort-seq, measured: YFP reporter; E. coli; PhoQ-PhoP variant library, added: 10 µM Mg2+; reference: high Mg2+ state, higher = stronger signaling): 5.01

Excerpt of the above (sample 3):
GTAGACTA: -0.0915
ATTCAGAA: 0.102
